# Measured values from different studies.
# Every numbered part comes from another study and shows a few of its results, in no order. Positions count from the first letter of the parent shown.
# UniProt Q9Y6R4, sequence (whole entry, looked up): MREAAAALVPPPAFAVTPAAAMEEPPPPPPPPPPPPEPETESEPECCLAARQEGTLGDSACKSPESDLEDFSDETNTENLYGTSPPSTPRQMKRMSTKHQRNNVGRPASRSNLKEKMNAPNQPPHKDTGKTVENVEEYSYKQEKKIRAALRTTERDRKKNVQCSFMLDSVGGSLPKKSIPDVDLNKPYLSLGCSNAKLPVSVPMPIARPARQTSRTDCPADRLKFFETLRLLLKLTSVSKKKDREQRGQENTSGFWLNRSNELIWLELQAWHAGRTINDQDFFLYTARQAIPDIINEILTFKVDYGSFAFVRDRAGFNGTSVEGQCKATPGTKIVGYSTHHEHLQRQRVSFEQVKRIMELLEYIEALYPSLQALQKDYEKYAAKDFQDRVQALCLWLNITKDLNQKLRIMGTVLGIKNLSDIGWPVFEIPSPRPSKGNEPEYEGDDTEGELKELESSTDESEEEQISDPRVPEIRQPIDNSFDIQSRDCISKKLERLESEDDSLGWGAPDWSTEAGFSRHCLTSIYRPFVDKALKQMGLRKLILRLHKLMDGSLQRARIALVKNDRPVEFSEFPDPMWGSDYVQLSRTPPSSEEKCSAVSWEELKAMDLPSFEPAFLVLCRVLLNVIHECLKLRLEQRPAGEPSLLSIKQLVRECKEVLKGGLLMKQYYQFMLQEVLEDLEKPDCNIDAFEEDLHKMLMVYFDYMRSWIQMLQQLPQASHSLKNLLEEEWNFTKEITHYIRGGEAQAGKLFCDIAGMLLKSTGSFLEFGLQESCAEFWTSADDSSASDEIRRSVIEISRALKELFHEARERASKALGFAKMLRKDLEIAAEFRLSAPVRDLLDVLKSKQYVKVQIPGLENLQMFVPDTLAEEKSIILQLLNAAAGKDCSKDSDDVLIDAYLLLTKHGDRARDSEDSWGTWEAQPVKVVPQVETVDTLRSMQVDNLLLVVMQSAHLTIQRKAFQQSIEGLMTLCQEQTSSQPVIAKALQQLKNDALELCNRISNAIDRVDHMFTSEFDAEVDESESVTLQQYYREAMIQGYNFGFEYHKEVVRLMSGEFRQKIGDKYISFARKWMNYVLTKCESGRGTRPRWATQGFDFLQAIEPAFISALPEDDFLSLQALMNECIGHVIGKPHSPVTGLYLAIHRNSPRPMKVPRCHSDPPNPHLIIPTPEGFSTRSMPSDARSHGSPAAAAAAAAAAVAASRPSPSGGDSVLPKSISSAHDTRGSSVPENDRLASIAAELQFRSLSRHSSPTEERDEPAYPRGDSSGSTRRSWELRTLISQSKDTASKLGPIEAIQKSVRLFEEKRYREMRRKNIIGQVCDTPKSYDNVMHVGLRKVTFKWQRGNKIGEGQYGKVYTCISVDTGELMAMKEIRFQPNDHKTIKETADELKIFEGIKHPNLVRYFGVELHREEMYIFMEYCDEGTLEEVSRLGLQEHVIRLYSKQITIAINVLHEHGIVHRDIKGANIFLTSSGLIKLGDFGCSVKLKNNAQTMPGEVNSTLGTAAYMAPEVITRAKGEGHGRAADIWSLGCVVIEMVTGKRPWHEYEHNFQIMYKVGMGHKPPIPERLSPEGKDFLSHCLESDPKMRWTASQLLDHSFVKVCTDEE
# UniProt P10721, sequence (whole entry, unmodified, looked up): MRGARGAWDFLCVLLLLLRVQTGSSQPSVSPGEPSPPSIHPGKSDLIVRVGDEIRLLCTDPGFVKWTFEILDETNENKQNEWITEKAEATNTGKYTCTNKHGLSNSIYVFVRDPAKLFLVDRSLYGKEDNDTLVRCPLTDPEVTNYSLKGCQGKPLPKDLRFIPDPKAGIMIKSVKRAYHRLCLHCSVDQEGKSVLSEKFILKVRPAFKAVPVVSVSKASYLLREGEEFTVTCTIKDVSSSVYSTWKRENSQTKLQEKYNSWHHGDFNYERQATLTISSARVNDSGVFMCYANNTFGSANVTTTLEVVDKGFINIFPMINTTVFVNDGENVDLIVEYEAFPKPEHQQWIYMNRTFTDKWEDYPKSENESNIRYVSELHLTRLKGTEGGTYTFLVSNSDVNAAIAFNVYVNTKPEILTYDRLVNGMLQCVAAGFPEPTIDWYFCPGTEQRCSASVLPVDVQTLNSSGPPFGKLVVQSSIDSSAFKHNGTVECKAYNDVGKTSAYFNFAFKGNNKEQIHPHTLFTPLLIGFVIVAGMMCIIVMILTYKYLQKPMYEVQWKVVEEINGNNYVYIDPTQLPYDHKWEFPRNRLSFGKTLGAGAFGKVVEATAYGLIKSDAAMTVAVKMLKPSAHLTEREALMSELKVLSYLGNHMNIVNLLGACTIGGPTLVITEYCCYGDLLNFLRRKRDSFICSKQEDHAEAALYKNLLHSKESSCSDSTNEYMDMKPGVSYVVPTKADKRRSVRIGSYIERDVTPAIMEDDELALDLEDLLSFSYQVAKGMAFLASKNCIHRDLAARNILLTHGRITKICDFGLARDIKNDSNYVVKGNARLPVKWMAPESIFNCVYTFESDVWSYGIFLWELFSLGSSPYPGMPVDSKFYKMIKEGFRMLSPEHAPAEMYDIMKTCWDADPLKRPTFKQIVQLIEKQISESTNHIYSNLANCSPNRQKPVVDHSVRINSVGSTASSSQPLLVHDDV
# UniProt O14730, sequence (whole entry, looked up): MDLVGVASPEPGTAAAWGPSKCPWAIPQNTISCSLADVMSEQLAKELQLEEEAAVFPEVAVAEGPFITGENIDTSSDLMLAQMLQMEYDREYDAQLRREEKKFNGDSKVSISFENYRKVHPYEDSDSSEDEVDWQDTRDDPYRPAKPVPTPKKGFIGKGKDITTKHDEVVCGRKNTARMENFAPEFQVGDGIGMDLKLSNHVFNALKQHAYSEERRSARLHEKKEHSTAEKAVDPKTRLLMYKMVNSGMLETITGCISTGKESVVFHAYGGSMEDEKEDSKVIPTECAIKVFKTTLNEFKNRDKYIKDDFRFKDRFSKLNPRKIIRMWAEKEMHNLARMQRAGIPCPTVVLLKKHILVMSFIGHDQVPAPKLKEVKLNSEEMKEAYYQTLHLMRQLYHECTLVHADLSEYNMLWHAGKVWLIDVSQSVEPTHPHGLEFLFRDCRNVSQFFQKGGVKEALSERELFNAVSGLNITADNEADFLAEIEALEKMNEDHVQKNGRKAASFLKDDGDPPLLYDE
# UniProt P11802, sequence (whole entry, looked up): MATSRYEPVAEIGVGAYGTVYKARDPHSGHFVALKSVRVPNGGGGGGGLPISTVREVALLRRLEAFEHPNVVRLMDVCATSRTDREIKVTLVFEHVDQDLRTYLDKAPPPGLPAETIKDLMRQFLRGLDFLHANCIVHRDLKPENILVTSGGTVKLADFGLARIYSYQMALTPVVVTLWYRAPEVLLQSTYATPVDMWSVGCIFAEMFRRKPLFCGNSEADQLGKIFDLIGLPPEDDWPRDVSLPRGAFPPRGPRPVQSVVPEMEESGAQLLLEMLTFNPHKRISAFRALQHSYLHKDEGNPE

# Series 1
# Target: RING finger protein unkempt homolog, zinc fingers 1-6, GST-SBP tag (UNK, Homo sapiens, UniProt Q9C0B0, residues 30-357)
# UniProt Q9C0B0, sequence (30-357, looked up): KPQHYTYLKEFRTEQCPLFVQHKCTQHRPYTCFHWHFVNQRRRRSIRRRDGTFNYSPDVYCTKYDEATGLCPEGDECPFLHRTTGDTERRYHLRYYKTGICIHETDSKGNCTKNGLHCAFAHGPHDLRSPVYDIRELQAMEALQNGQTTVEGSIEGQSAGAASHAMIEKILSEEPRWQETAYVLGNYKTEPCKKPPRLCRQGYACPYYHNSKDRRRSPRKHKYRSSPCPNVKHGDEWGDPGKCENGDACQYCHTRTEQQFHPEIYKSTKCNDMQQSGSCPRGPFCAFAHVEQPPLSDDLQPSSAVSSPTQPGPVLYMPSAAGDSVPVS
# Technique: RNA Bind-n-Seq
# Molecule type: RNA
# Matrix: in vitro
# Concentration: not given
# Notes: RNA with constant flanks, human and mouse sites, ends assumed
# Reference: input RNA pool
# Direction: higher = stronger binding
# All sequences stand within: GGGAGUUCUACAGUCCGACGAUC … CAACAGAGGAUUGAGCAUCA
Sequence,bound/input enrichment [ratio]
AGAGACCUCCUAAAGACAUUCAGAAUCUCAUCUGACACAUUUAUAACCUACAUGAUGACUUUAGAAGACCAUUACCAUUCUGACGUGGCAUAUCACAACAGCCUGCACGCUGCUGAUGUA,0.261
AUGUCCAAGUCACUGAAAAACUUUAUCACCAUUAAAGAUGCCUUGAAGAAGCACUCAGCACGGCAGCUGCGACUGGCAUUCCUCAUGCACUCAUGGAAAGACACACUGGACUAUUCCAGC,0.0777
CAGAGUUUACUUUUCAGAUCAAAUUGUUUAUGGUUUUACAAAUGUGAUUUCUACUUGGCAACCUUUUUUUGGUAACUCGUUCCCUUAUACCUCCUUGAUUGAAUACCUUACAGCCUAGAC,0.465
ACACCUAGUGACCGUUCCAGAUAUAGAUUAGAUUUGGAAGGAAAUGAGUAUCCUAUUCAUAGUACCCCAAACUGUCAUGACCAUGAACGCAACCAUAAAGUGCCUCCACCUAUUAAACCU,0.521
CCAGACAGCCCCUCUCCAGAUAGAUUUGGGAUGUUGCCAUUGGGUGAGCCUGCUGUUCUCAUCAGUGAGUUCCUGGACCGGUUUCAAAGCCUUUGCCAUUUGGACCUCCAACUUCCUUCU,0.0979
CCAGUUUGUAUGUACAUUAUUCAUAUUCCUCUCUGUUGUGUUUCGGGGGGAAAAGACAUUUUAGCCUUUUUUAAAAGUUACUGAUUUAAUUUCAUGUUAUUUGGUUGCAUGAAGUUGCCC,6.13
CCUCAUAGCAAUGCAAAAAAUUUUGAUGAGUUACUACUACUAAAACUAGUUAAGUAAAAGAUGAUUCUUAAGAAUUUCCAGGCUGGGCACGGUGGCUCACGCCUGUAAUCCCAGCACUUU,1.12
UUUUUAUGUAGGCGAGCUAACACAGUGUACCUAAUUGCAGAAUUAUCUGAUUAAUUUGUAAUAGAUAAGUUGUAUAACAUUUUCAUAUCUUAAAAUGUUUUUUAGAUCAAUCUUGAAGUG,0.686

# Series 2
# Target: FOSL2, bZIP domain (human)
# Technique: DHFR protein complementation
# Matrix: yeast
# Notes: single substitutions, most at no-binding floor
# Reference: wild-type JUN-FOS pair
# Direction: higher = stronger binding
# Starting sequence: JUN, bZIP domain (human); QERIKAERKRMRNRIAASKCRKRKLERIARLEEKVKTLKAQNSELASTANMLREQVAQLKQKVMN; partner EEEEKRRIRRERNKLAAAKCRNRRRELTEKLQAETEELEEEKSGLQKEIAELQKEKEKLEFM
Variant,binding fitness
T37P,-1.14 natural log
L52Y,-0.477 natural log
L38K,-1 natural log
S47Q,0.101 natural log
K39D,-0.817 natural log
R53W,-0.81 natural log
A57G,0.0111 natural log
T48P,-1.22 natural log

# Series 3
# SMILES: CS(=O)(=O)N1CCCC(NC(=O)[C@H](CCC2CCCCC2)NC(=O)c2ccc(CNc3ncnc4c3nnn4-c3ccccc3)cc2)C1 (stereo partly shown)
# Effect on: cell-free assay
# Technique: competition with immobilised ligand
# Concentration: 0.1 µM
target,remaining binding
"Serine/threonine-protein kinase RIO3 (RIOK3, Homo sapiens, UniProt O14730)",88%
"Mast/stem cell growth factor receptor Kit (KIT, Homo sapiens, UniProt P10721, A829P)",100%
"Epidermal growth factor receptor (EGFR, Homo sapiens, UniProt P00533, A750P/del747-749)",93%
"Mitogen-activated protein kinase kinase kinase 4 (MAP3K4, Homo sapiens, UniProt Q9Y6R4)",75%
"Receptor-type tyrosine-protein kinase FLT3 (FLT3, Homo sapiens, UniProt P36888, D835V/ITD)",100%
"Cyclin-dependent kinase 4, with cyclin D3 (CDK4, Homo sapiens, UniProt P11802)",100%

# Series 4
# Target: Casein kinase II subunit alpha' (CSNK2A2, Homo sapiens, UniProt P19784)
# UniProt P19784, sequence (whole entry, looked up): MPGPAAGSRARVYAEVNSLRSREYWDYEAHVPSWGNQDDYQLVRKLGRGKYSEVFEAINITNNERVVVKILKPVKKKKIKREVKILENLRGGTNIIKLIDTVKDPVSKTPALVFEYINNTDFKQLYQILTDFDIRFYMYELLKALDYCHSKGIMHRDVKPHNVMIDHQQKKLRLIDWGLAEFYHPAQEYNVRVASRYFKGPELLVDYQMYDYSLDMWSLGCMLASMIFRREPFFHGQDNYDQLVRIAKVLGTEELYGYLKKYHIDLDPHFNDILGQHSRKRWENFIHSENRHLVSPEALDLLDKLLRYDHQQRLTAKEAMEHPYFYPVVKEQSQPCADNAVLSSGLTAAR
# Effect on: enzyme activity
# Mode: inhibitor
# Concentration: 0.5 µM
# Reference: control
SMILES,remaining activity
Oc1cccc(-c2nc(N3CCOCC3)c3oc4ncccc4c3n2)c1,56.2%
NC(=O)c1cccc(-c2cc(Nc3ccc(OC(F)(F)F)cc3)ncn2)c1,92.7%
O=C1c2ccccc2-c2nc3nnnn3nc21,76.2%

# For quick reference, copied from above (series 2):
Variant,binding fitness
S47Q,0.101 natural log
A57G,0.0111 natural log
T37P,-1.14 natural log
L38K,-1 natural log
